{"data": "Measured values collected from several papers", "note": "Numbered parts are unrelated; each lists some results of a single study. Positions count from the first letter of the parent shown."}
{"data": "Series 1", "target": "CCNE1, cyclin fold, Cln2 fusion (human)", "technique": "yeast growth competition, sequencing", "sample": "yeast", "notes": "strong parent motif", "baseline": "not given", "reading": "higher = stronger binding", "starting sequence": "viral docking peptide; KGVKRKLFAEDSS"}
{"Substitution": "S12K", "normalised enrichment score": 7.12}
{"Substitution": "F8G", "normalised enrichment score": 0.155}
{"Substitution": "E10K", "normalised enrichment score": 5.8}
{"data": "Series 2", "target": "UBE2D3 UBC core domain (UniProt P61077)", "technique": "yeast two-hybrid", "sample": "yeast", "notes": "mostly zero background", "baseline": "not given", "reading": "higher = stronger interaction", "B1": "RNF43 RING domain (UniProt Q68DV7); chain SGSSCSSAPVCAICLEEFSEGQELRVISCLHEFHRNCVDPWLHQHRTCPLCMFNITEGDSFS", "B2": "ANKIB1 RING domain (UniProt Q9P2G1); chain LSPGDLDTSLCDICMCSISVFEDPVDMPCGHDFCRGCWESFLNLKIQEGEAHNIFCPAYDCFQLVPVDIIE", "B3": "RNF112 RING domain (UniProt Q9ULX5); chain QPMAPRELPTCSICLERLRDPISLDCGHDFCIRCFSTHRLPGCEPPCCPECRKICKQKRGLR", "B4": "RNF4 RING domain (UniProt P78317); chain TGLRPSGTVSCPICMDGYSEIVQNGRLIVSTECGHVFCSQCLRDSLKNANTCPTCRKKINHKRYHP", "B5": "TRIM52 RING domain (UniProt Q96A61); chain PMQTLQEEAVCAICLDYFKDPVSISCGHNFCRGCVTQLWSKEDEEDQNEEEDEWEEEEDEEAV", "B6": "PEX2 RING domain (UniProt P28328); chain DNTLATSGKECALCGEWPTMPHTIGCEHIFCYFCAKSSFLFDVYFTCPKCGTEVHSLQPLK", "B7": "TRIM3 RING domain (UniProt O75382); chain VQPMDKQFLVCSICLDRYQCPKVLPCLHTFCERCLQNYIPAQSLTLSCPVCRQTSILPEQGV", "B8": "RNF32 RING domain (UniProt Q9H0A6); chain SLLQGDSVQPCPICKEEFELRPQVLLSCSHVFHKACLQAFEKFTNKKTCPLCRKNQYQTRVIH", "B9": "RNF149 RING domain (UniProt Q8NC42); chain EKGIDVDAENCAVCIENFKVKDIIRILPCKHIFHRICIDPWLLDHRTCPMCKLDVIKALGYW", "B10": "RNF14 RING domain (UniProt Q9UBS8); chain IKCFNSKLFLCSICFCEKLGSECMYFLECRHVYCKACLKDYFEIQIRDGQVQCLNCPEPKCPSVATPGQVK", "B11": "RNF150 RING domain (UniProt Q9ULK6); chain DKETESDFDNCAVCIEGYKPNDVVRILPCRHLFHKSCVDPWLLDHRTCPMCKMNILKALGIP", "B12": "TRIM10 RING domain (UniProt Q9UDY6); chain SVTSLADEVNCPICQGTLREPVTIDCGHNFCRACLTRYCEIPGPDLEESPTCPLCKEPFRPGSFRP", "Construct (chain)": "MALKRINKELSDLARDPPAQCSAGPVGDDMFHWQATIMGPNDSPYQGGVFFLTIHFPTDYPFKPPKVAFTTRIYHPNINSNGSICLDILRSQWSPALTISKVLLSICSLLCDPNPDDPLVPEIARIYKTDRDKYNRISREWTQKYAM"}
{"Sequence": "B1 (RNF43 RING domain)", "lacZ reporter activity": 7640}
{"Sequence": "KRQCSDVDDICSICQAEFQKPILLICQHIFCEECMTLWFNREKTCPLCRTVISDHINKW (RNFT1 RING domain (UniProt Q5M7Z0))", "lacZ reporter activity": 0}
{"Sequence": "ISNDSETLEECMVCSDMKRDTLFGPCGHIATCSLCSPRVKKCLICKEQVQSRTKIE (MIB1 RING domain (UniProt Q86YT6))", "lacZ reporter activity": 0}
{"Sequence": "B2 (ANKIB1 RING domain)", "lacZ reporter activity": 0}
{"Sequence": "B3 (RNF112 RING domain)", "lacZ reporter activity": 0}
{"Sequence": "B4 (RNF4 RING domain)", "lacZ reporter activity": 3590}
{"Sequence": "B5 (TRIM52 RING domain)", "lacZ reporter activity": 0}
{"Sequence": "B6 (PEX2 RING domain)", "lacZ reporter activity": 0}
{"Sequence": "B7 (TRIM3 RING domain)", "lacZ reporter activity": 0}
{"Sequence": "B8 (RNF32 RING domain)", "lacZ reporter activity": 0}
{"Sequence": "B9 (RNF149 RING domain)", "lacZ reporter activity": 0}
{"Sequence": "B10 (RNF14 RING domain)", "lacZ reporter activity": 0}
{"Sequence": "QLQDEEDDSLCRICMDAVIDCVLLECGHMVTCTKCGKRMSECPICRQYVVRAVHVF (RNF34 RING domain (UniProt Q969K3))", "lacZ reporter activity": 0}
{"Sequence": "B11 (RNF150 RING domain)", "lacZ reporter activity": 15900}
{"Sequence": "SYEDKSNDFVCPICFDMIEEAYMTKCGHSFCYKCIHQSLEDNNRCPKCNYVVDNIDHLY (COP1 RING domain (UniProt Q8NHY2))", "lacZ reporter activity": 0}
{"Sequence": "B12 (TRIM10 RING domain)", "lacZ reporter activity": 0}
{"data": "Series 3", "target": "PABPC1L2, full length, GST fusion (mouse, UniProt A0ABA7IW68)", "technique": "RNAcompete", "form": "RNA", "sample": "in vitro", "concentration": "20 nM", "notes": "7-mer, probes averaged, single round", "baseline": "mean of 7-mers", "reading": "higher = stronger binding"}
{"Oligonucleotide": "UCUUCCG", "7-mer Z-score": -0.514}
{"Oligonucleotide": "ACGAUGC", "7-mer Z-score": -0.0754}
{"Oligonucleotide": "CUCUGAC", "7-mer Z-score": -0.213}
{"Oligonucleotide": "AUUCGUG", "7-mer Z-score": -0.164}
{"Oligonucleotide": "CUUACCU", "7-mer Z-score": -0.318}
{"Oligonucleotide": "AUCCGGA", "7-mer Z-score": -0.142}
{"Oligonucleotide": "GCGACCU", "7-mer Z-score": -0.0246}
{"Oligonucleotide": "GUCGACU", "7-mer Z-score": -0.217}
{"data": "Series 4", "Substitution": "T119N", "target": "ABI1, truncated, D143A, DHFR fusion (Arabidopsis thaliana)", "technique": "DHFR PCA, deep sequencing", "sample": "yeast", "notes": "methotrexate growth selection, single substitutions", "baseline": "wild-type fitted maximum", "reading": "higher = stronger binding", "starting sequence": "PYL1, truncated, DHFR fusion (Arabidopsis thaliana); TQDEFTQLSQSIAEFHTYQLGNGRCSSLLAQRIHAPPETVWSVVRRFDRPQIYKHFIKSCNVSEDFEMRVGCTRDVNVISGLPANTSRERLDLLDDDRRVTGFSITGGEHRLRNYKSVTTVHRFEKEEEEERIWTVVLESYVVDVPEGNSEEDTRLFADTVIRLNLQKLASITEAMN; partner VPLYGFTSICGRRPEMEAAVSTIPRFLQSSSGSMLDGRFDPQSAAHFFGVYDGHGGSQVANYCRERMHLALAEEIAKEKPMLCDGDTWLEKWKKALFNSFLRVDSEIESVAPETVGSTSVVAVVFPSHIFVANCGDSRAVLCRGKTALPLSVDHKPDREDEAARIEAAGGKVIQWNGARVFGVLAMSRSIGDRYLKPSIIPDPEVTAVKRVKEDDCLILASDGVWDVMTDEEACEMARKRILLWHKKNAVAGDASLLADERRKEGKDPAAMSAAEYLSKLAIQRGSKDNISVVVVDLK"}
{"conditions": "with: (+)-ABA 17 µM", "relative binding score [%]": 10.5}
{"conditions": "with: (+)-ABA 0.39 µM", "relative binding score [%]": -5.01}
{"conditions": "with: (+)-ABA 4.8 µM", "relative binding score [%]": -4.06}
{"conditions": "with: (+)-ABA 58 µM", "relative binding score [%]": 12.3}
{"conditions": "with: (+)-ABA 0 µM", "relative binding score [%]": -1.33}
{"conditions": "with: (+)-ABA 0.11 µM", "relative binding score [%]": -3.79}
{"data": "Mixed results"}
{"Compound": "COC[C@H]1OC(=O)c2coc3c2[C@@]1(C)C1=C(C3=O)[C@@H]2CCC(=O)[C@@]2(C)C[C@H]1OC(C)=O", "target": "Mitogen-activated protein kinase kinase kinase 20 (MAP3K20, Homo sapiens, UniProt Q9NYL2)", "test": "enzyme activity, inhibitor", "conditions": "0.5 µM", "how to read": "baseline: control", "measurement": "remaining activity", "result": "94.3%"}
{"note": "For quick reference, copied from above (series 2):"}
{"Sequence": "KRQCSDVDDICSICQAEFQKPILLICQHIFCEECMTLWFNREKTCPLCRTVISDHINKW (RNFT1 RING domain (UniProt Q5M7Z0))", "lacZ reporter activity": 0}
{"Sequence": "QLQDEEDDSLCRICMDAVIDCVLLECGHMVTCTKCGKRMSECPICRQYVVRAVHVF (RNF34 RING domain (UniProt Q969K3))", "lacZ reporter activity": 0}
